Assay results pooled from the literature.
Parts stem from different laboratories: compare values within a part only. “And” joins repeats or separate records; there may be more than shown.
UniProt P29323, sequence (whole entry, looked up): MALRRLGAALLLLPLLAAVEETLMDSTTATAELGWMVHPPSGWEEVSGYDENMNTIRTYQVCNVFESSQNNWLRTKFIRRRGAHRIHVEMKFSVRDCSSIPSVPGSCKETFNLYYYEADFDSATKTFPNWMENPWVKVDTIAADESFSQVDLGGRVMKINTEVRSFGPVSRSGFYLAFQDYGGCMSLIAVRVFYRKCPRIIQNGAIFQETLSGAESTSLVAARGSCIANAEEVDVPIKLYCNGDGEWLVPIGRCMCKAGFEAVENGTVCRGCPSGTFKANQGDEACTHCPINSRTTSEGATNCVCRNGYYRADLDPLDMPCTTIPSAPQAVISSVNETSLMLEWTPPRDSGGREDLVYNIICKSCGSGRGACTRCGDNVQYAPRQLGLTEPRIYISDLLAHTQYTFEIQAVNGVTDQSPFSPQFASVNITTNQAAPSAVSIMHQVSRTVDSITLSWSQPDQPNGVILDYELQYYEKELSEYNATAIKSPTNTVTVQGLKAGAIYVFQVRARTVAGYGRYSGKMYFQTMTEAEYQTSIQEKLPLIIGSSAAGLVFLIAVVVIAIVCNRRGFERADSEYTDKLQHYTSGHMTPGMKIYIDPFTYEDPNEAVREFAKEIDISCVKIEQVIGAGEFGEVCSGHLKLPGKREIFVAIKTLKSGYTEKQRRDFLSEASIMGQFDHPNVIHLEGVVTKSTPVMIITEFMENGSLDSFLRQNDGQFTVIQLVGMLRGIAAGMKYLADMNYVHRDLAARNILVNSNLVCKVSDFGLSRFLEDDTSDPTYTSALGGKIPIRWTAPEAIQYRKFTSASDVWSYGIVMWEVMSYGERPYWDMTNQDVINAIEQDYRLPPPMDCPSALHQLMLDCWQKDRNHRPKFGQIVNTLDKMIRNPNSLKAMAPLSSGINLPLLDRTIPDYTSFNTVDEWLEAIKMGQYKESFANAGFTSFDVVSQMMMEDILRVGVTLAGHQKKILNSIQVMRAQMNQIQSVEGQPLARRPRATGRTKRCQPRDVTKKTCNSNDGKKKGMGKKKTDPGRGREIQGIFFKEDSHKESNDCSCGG
UniProt Q9NYY3, sequence (whole entry, looked up): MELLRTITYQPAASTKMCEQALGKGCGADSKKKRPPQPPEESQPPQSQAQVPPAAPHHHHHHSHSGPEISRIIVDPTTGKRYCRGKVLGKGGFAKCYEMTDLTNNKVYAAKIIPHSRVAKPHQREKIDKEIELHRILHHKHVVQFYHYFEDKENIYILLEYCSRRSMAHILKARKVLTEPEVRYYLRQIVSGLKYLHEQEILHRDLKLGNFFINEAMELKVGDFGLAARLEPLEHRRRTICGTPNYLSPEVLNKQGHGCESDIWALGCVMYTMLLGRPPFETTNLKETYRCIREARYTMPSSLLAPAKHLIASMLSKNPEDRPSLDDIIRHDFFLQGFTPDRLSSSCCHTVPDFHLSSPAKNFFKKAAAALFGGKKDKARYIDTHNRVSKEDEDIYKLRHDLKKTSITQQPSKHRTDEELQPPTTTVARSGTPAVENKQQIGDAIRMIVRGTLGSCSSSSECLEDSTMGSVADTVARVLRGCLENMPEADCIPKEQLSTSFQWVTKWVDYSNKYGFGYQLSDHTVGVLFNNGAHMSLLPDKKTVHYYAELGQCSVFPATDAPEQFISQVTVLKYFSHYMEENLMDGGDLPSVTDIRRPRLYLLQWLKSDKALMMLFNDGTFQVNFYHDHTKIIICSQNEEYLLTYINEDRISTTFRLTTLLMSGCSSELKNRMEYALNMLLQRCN
UniProt P53350, sequence (whole entry, looked up): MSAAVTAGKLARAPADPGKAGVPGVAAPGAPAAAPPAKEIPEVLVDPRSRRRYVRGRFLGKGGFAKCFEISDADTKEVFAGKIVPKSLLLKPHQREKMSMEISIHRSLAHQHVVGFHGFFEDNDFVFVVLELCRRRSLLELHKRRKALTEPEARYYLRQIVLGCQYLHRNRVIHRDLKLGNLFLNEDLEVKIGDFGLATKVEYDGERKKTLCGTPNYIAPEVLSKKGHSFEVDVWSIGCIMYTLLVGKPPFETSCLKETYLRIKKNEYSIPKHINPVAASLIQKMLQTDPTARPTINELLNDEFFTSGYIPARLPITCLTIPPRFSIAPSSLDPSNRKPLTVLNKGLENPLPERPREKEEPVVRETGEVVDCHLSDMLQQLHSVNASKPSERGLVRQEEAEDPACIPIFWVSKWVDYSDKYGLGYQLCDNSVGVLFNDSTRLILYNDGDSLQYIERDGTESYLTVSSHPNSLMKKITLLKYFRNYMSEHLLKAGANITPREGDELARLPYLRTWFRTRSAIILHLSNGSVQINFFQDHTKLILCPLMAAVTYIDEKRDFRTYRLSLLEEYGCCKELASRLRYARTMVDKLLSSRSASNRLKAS
UniProt P42336, sequence (whole entry, unmodified, looked up): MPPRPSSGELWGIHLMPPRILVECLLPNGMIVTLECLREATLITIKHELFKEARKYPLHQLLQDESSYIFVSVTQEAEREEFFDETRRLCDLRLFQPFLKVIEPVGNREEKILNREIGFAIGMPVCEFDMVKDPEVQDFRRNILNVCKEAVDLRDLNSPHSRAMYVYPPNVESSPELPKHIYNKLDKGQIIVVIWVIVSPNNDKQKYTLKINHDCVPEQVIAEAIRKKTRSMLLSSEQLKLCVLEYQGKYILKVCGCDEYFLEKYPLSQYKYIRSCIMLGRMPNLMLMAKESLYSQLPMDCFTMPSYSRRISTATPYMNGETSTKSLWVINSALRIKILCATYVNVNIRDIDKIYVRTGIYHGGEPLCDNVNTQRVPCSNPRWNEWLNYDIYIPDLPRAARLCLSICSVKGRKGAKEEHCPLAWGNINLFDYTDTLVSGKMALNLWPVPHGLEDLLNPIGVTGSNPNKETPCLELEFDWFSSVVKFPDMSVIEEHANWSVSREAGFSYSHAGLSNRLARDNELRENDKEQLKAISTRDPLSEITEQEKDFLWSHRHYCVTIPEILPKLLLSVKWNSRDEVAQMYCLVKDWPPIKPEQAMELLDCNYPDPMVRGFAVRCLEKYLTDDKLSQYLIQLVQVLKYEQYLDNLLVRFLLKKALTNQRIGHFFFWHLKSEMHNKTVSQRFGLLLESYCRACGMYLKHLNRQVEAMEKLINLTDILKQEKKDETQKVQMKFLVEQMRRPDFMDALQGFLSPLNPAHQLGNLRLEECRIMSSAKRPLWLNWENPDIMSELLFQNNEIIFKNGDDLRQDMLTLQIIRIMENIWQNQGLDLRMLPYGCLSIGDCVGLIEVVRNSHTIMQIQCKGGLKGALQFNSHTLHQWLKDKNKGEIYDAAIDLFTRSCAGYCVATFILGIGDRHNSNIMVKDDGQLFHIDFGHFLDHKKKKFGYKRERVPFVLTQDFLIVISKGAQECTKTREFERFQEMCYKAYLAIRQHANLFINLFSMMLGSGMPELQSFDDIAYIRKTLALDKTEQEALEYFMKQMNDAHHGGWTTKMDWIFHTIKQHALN
UniProt Q52WX2, sequence (whole entry, looked up): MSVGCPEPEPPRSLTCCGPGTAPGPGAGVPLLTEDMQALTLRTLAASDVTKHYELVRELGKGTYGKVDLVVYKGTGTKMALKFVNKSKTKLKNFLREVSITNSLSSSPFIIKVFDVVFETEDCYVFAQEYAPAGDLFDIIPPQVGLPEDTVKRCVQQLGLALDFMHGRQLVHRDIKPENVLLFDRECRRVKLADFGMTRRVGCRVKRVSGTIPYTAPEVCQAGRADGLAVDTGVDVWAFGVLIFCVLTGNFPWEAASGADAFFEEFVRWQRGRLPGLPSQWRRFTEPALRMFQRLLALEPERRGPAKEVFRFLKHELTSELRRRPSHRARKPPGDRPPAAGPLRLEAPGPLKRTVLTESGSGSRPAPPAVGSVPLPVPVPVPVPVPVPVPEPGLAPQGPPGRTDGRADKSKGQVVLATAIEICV
UniProt Q15418, sequence (whole entry, looked up): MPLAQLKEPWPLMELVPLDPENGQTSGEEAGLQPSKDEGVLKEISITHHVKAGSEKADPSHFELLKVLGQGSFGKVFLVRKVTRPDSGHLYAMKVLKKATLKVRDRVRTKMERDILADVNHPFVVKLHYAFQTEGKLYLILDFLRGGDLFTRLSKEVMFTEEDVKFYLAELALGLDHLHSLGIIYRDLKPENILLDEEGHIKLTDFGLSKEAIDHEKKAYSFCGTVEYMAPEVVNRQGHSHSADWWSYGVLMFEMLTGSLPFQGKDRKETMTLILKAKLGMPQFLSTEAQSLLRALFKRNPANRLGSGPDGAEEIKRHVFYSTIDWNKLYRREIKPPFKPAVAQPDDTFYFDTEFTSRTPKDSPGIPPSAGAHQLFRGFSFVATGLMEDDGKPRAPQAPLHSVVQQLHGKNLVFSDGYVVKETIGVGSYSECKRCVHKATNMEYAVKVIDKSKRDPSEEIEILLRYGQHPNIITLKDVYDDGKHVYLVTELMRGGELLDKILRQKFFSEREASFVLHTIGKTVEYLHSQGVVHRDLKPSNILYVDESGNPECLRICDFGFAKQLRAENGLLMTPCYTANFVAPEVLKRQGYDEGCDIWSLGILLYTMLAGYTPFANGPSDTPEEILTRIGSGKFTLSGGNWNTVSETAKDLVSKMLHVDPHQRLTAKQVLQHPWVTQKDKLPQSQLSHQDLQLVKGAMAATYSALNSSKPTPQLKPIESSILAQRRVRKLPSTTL

Block 1
Organism: Sarcocystis neurona
Effect on: parasite growth
Tested at: 10 µM
Time: 96 h
Setting: first screen
| SMILES | inhibition [%] |
| --- | --- |
| COCC1=C(C(=O)OC(C)OC(=O)OC(C)C)N2C(=O)[C@@H](NC(=O)/C(=N\OC)c3csc(N)n3)[C@H]2SC1 (some centres unmarked) | 9.7 |
| Cc1noc(NS(=O)(=O)c2ccc(N)cc2)c1C | -9.8 |
| NS(=O)(=O)Cc1noc2ccccc12 | -10.7 |
| Nc1nc(F)nc2c1ncn2[C@@H]1O[C@H](CO)[C@@H](O)[C@@H]1O | 1.1 |
| C[C@]12C[C@H](O)[C@H]3[C@@H](CCC4=CC(=O)CC[C@@]43C)[C@@H]1CC[C@@H]2C(=O)CO | -2 |
| CN(C)[C@@H]1C(O)=C(C(=O)NCN2CCCC2)C(=O)[C@@]2(O)C(O)=C3C(=O)c4c(O)cccc4[C@@](C)(O)[C@H]3C[C@@H]12 | -6.7 |

Block 2
Structure (SMILES): COc1cc(C(=O)N2CCC(N3CCN(C)CC3)CC2)ccc1Nc1ncc2c(n1)N(C)c1ccccc1C(=O)N2C
| target | test | system | conditions | inhibition [%] |
| --- | --- | --- | --- | --- |
| NEK9 (human) | probe labelling, KiNativ ATP probe | human PBMC lysate | concentration not given, LYS2 labelled site | -4 |
| mouse IKKε and TBK1 | probe labelling, KiNativ ADP probe | mouse brain lysate | 1 µM, LYS2 site DIkPGNIMR | 4.6 |
| MAP3K5 and MAP3K6 mouse | KiNativ profiling | mouse brain lysate | 1 µM, LYS1 site, added: ADP acyl phosphate probe | 4.8 |
| ATR (mouse) | probe labelling, KiNativ, refers to: FYIMMCkPK peptide, ATP site | brain tissue lysate (mouse) | 1 µM, added: ADP acyl-phosphate probe | -5.7 |

Block 3
Target: Beta-1 adrenergic receptor (ADRB1, Homo sapiens, UniProt P08588)
UniProt P08588, sequence (whole entry, looked up): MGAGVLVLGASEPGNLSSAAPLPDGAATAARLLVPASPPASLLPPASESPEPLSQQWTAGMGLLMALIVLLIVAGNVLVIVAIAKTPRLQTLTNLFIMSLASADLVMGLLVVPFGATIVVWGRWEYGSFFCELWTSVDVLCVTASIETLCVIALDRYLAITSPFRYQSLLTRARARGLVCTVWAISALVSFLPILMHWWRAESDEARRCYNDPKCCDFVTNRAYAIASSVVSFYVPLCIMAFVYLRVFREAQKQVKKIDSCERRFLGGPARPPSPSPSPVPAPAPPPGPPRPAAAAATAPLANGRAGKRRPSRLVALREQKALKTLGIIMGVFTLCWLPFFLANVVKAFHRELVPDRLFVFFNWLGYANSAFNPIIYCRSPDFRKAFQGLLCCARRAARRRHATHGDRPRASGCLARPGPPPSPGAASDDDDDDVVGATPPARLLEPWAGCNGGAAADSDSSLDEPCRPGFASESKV
Action: antagonist
| SMILES | IC50 |
| --- | --- |
| Cn1c(=O)c2c(nc(N3CCNCC3)n2Cc2ccccc2)n(C)c1=O | ≥ 100 µM |
| CCOc1ccccc1N1CCN(C(=O)C2CNCCO2)CC1 (centres unmarked) | ≥ 100 µM |
| c1ccc(-c2nc(-c3cnc4ccccc4n3)cs2)cc1 | ≥ 100 µM |
| COc1cc(NC(=O)NCCN2CCN(c3ccccc3)CC2)cc(OC)c1OC | ≥ 100 µM |
| Cc1noc2c(-c3cccnc3N(C)C)cc(-c3ccccc3)nc12 | ≥ 100 µM |

Block 4
Host: mouse
Matrix: microsomes or S9
Tested at: 2 µM
Time: 0.5 h
| Compound | remaining compound [%] |
| --- | --- |
| Oc1c(-c2ccccc2Br)c(-n2cncn2)nc2ccccc12 | 96.8 |
| CCOC1CC(N(C)C(=O)COCc2ocnc2C(=O)O)C1(C)C (centres unmarked) | > 100 |
| O=C(C1CC(=O)N(c2nc[nH]n2)C1)N1CCC(c2c[nH]c3ccccc23)(c2c[nH]c3ccccc23)CC1 (centres unmarked) | 8.8 |
| CN1CC[C@H]2CN(C(=O)c3c4c(nn3C)CCCC4)C[C@H]21 | 79.3 |
| CCC1=NOC(c2nc3sc(CC)cc3c(=O)[nH]2)C1 (centres unmarked) | 23.3 |

Block 5
Cell line: mouse MPNST tumor cells
Technique: high-content nuclear imaging
Refers to: cell number
Tested at: 10 µM
Time: 12 h
Setting: mean of 2 replicates
Relative to: plate mean
Reading: higher = more cells
| Compound | nuclei count |
| --- | --- |
| CC(=O)O[C@H]1C[C@@H]2CC[C@@H]3[C@H](CC[C@@]4(C)[C@H]3C[C@H]([N+]3(C)CCCCC3)[C@@H]4OC(C)=O)[C@@]2(C)C[C@@H]1N1CCCCC1 | 0.274 z-score and 0.554 z-score |
| CN1CCN(CCCN2c3ccccc3Sc3ccc(Cl)cc32)CC1 | -4.87 z-score |
| CC(C)n1c(/C=C/C(O)CC(O)CC(=O)O)c(-c2ccc(F)cc2)c2ccccc21 (centres unmarked) | -5.39 z-score |

Block 6
SMILES: CS(=O)(=O)N1CCCC(NC(=O)[C@H](CCC2CCCCC2)NC(=O)c2ccc(CNC(=O)c3cnc4ccccn34)cc2)C1 (some centres unmarked)
Tested at: 0.1 µM
| target | effect on | technique | remaining binding [%] |
| --- | --- | --- | --- |
| Serine/threonine-protein kinase PLK1 (PLK1, Homo sapiens, UniProt P53350) | cell-free assay | competition with immobilised ligand | 100 |
| Tyrosine-protein kinase FRK (FRK, Homo sapiens, UniProt P42685) | cell-free assay | competition with immobilised ligand | 77 |
| Phosphatidylinositol 4,5-bisphosphate 3-kinase catalytic subunit alpha isoform (PIK3CA, Homo sapiens, UniProt P42336, Q546K) | cell-free assay | competition with immobilised ligand | 90 |
| Serine/threonine-protein kinase SBK1 (SBK1, Homo sapiens, UniProt Q52WX2) | cell-free assay | competition with immobilised ligand | 77 |
| Mitogen-activated protein kinase kinase kinase 9 (MAP3K9, Homo sapiens, UniProt P80192) | cell-free assay | competition with immobilised ligand | 65 |
| BMP-2-inducible protein kinase (BMP2K, Homo sapiens, UniProt Q9NSY1) | cell-free assay | competition with immobilised ligand | 92 |
| Phosphatidylinositol 4-phosphate 3-kinase C2 domain-containing subunit beta (PIK3C2B, Homo sapiens, UniProt O00750) | cell-free assay | competition with immobilised ligand | 100 |
| Ribosomal protein S6 kinase alpha-1, N-terminal kinase domain (RPS6KA1, Homo sapiens, UniProt Q15418) | cell-free assay | competition with immobilised ligand | 74 |
| Epidermal growth factor receptor (EGFR, Homo sapiens, UniProt P00533, del746-750) | cell-free assay | competition with immobilised ligand | 66 |
| 5'-AMP-activated protein kinase catalytic subunit alpha-1 (PRKAA1, Homo sapiens, UniProt Q13131) | cell-free assay | competition with immobilised ligand | 100 |
| Receptor tyrosine-protein kinase erbB-4 (ERBB4, Homo sapiens, UniProt Q15303) | cell-free assay | competition with immobilised ligand | 95 |
| Tyrosine-protein kinase receptor TYRO3 (TYRO3, Homo sapiens, UniProt Q06418) | cell-free assay | competition with immobilised ligand | 83 |
| Non-receptor tyrosine-protein kinase TNK1 (TNK1, Homo sapiens, UniProt Q13470) | cell-free assay | competition with immobilised ligand | 100 |
| Ephrin type-B receptor 2 (EPHB2, Homo sapiens, UniProt P29323) | cell-free assay | competition with immobilised ligand | 100 |
| Cyclin-dependent kinase 9 (CDK9, Homo sapiens, UniProt P50750) | cell-free assay | competition with immobilised ligand | 100 |
| Serine/threonine-protein kinase DCLK1 (DCLK1, Homo sapiens, UniProt O15075) | cell-free assay | competition with immobilised ligand | 99 |
| Serine/threonine-protein kinase PLK2 (PLK2, Homo sapiens, UniProt Q9NYY3) | cell-free assay | competition with immobilised ligand | 100 |
| Receptor-type tyrosine-protein kinase FLT3 (FLT3, Homo sapiens, UniProt P36888, D835Y) | cell-free assay | competition with immobilised ligand | 100 |
| Cyclin-dependent kinase 19 (CDK19, Homo sapiens, UniProt Q9BWU1) | – | competition binding | 100 |
| Serine/threonine-protein kinase MRCK gamma (CDC42BPG, Homo sapiens, UniProt Q6DT37) | – | competition binding | 98 |

Mixed results
| SMILES | host | dose | setting | quantity | value |
| --- | --- | --- | --- | --- | --- |
| CC(C)n1cnc(-c2ccc(F)cc2)c1-c1ncc(C(=O)Nc2ccc(N3CCN(C)CC3)cc2)[nH]1 | human, idiopathic pulmonary fibrosis | 30 mg once daily | trial, treatment-emergent | patients with Eczema | 0% |

Some of these lines once more (mixed results):
| SMILES | host | dose | setting | quantity | value |
| --- | --- | --- | --- | --- | --- |
| CC(C)n1cnc(-c2ccc(F)cc2)c1-c1ncc(C(=O)Nc2ccc(N3CCN(C)CC3)cc2)[nH]1 | human, idiopathic pulmonary fibrosis | 30 mg once daily | trial, treatment-emergent | patients with Eczema | 0% |
